Experimental data from different studies.
Compare with care: the assays were run in different laboratories. Numbers after ± are the reported error.
Chain of UniProt P08684 (whole entry, unmodified, looked up): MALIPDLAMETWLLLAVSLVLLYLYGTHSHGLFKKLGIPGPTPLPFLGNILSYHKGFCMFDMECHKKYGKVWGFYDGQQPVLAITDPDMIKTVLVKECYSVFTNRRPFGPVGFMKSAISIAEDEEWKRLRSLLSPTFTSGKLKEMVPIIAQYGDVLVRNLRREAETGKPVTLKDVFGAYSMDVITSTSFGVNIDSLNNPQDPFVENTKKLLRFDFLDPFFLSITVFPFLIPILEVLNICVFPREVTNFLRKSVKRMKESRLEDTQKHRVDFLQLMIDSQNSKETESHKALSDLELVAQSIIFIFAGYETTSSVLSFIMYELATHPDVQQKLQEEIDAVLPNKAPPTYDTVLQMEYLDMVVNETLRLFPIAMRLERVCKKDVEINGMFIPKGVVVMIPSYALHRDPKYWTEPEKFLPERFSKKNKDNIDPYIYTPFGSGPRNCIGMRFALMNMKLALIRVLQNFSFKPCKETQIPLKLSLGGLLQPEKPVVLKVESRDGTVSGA

Cn1c(=O)oc2ccc(-c3ccc(CC(C#N)NC(=O)C4CNCCCO4)c(F)c3)cc21 (stereo not drawn): “share of subjects with TEAE” 0% (item: white blood cells in urine; human volunteers; 60 mg single dose, fasted).
With NC(=O)CCCn1c2ccc([N+](=O)[O-])cc2c(=O)n1Cc1ccccc1 the selectivity index was 2 (Leishmania amazonensis; mouse peritoneal macrophages; intracellular amastigotes; reference: CC50 macrophages over IC50 amastigotes).
Under “total eye irritation score”, NC[C@@H](C(=O)Nc1ccc(-c2cn[nH]c2)cc1)c1ccccc1 is recorded as 0 (OECD 405 eye irritation; New Zealand White rabbit, eye; topical, 0.1%, 72 h (day 4); direction not given).
The cytokine level of CC(=O)N[C@H](C(=O)N[C@H](C(=O)N[C@@H](CCCNC(=N)N)C(=O)N1Cc2ccccc2C[C@H]1C(=O)N[C@@H](Cc1ccccc1)C(N)=O)C1CCCCC1)C(C)C is reported as 6.4 ± 2.3 pg/mL (human PBMC; Bio-Plex multiplex, item: IL-2; 500 µg/mL, 24 h).
Under “koff fast phase”, COc1ccc2cc(NC(=O)c3cc(-c4cccnc4)nc4ccccc34)ccc2c1 is recorded as 0.07 s⁻¹ (Cytochrome P450 3A4 (CYP3A4, Homo sapiens, UniProt P08684, S18F); binding, surface plasmon resonance; 10 °C).
With COC(=O)CCn1c2ccc([N+](=O)[O-])cc2c(=O)n1Cc1ccccc1 the selectivity index was 12 (Leishmania amazonensis; promastigotes, MHOM/BR/77/LTB0016; reference: CC50 macrophages over IC50 promastigotes).
O=C(O)CCC(NP(=O)(O)OCCC[C@@H](NC(=O)CC[C@H](NC(=O)CCCCCNC(=O)c1ccc([18F])cc1)C(=O)O)C(=O)O)C(=O)O (stereo partly drawn) has a tracer uptake of 2.33 %ID/g (CWR22Rv1 tumour model; host not given, tumour; 4 h, tumour-bearing).
O=C1CC(c2ccc(O)cc2)Oc2cc(O)cc([O][Ga+][O]c3cc(O)cc4c3C(=O)CC(c3ccc(O)cc3)O4)c21 (stereo not drawn) has a protective concentration of roughly 1 µg/mL (Pseudomonas aeruginosa; A549, PAO1; 2 h).
With CCCn1c2ccc([N+](=O)[O-])cc2c(=O)n1Cc1ccccc1 the selectivity index was 6 (Leishmania amazonensis; promastigotes, MHOM/BR/77/LTB0016; reference: CC50 macrophages over IC50 promastigotes).
For COC(=O)CN1CCN(CC(=O)OC)CCN(Cc2cc(-c3nc4ccccc4s3)cc(OC)c2O)CC1, the pCu was 9.4 (copper(II) ion; metal chelation, spectrophotometric titration; aqueous solution; 50 µM, pH 6.6, together with: Cu(II) 50 µM; higher = stronger binding).
[99Tc+].[C-]#[N+]CC(C)(C)OC.[C-]#[N+]CC(C)(C)OC.[C-]#[N+]CC(C)(C)OC.[C-]#[N+]CC(C)(C)OC.[C-]#[N+]CC(C)(C)OC.[C-]#[N+]CC(C)(C)OC gave a basolateral efflux of 40.5 ± 7.6% (rat sandwich-cultured hepatocytes; 20 min, culture day 4; reference: preloaded amount).
For [64Cu+2].c1ccc(CNCc2ccc(CN3CCCN4CCNCCCN(CC4)CC3)cc2)nc1, the tissue uptake was 1.64 ± 0.28 %ID/g (CXCR4; NOD/SCID mouse, U87 and U87-stb-CXCR4 xenografts, blood; iv, 240 min, ex vivo).
For CNCCCn1c2ccc([N+](=O)[O-])cc2c(=O)n1Cc1ccccc1, the selectivity index was 1 (Leishmania amazonensis; promastigotes, MHOM/BR/77/LTB0016; reference: CC50 macrophages over IC50 promastigotes).
With N#C[C@@H]1CCCN1C(=O)CNC(=O)c1ccnc2ccc(OCCCN3CCN(C(=O)CCc4ccc5c(c4)CN4CCN6CC(=O)[O][68Ga-]([O]C(=O)C4)([O]5)[O]c4ccc(CCC(=O)N5CCN(CCCOc7ccc8nccc(C(=O)NCC(=O)N9CCC[C@H]9C#N)c8c7)CC5)cc4C6)CC3)cc12 the tracer uptake was 34.3 %ID/g (U-87 MG tumour model; host not given, tumour; 1 h, tumour-bearing).
For CN(C)CCCn1c2ccc([N+](=O)[O-])cc2c(=O)n1Cc1ccccc1, the selectivity index was 0.4 (Leishmania amazonensis; promastigotes, MHOM/BR/77/LTB0016; reference: CC50 macrophages over IC50 promastigotes).
With CCN(CC)c1ccc2c(-c3ccc(S(=O)(=O)NCCNC(=O)CN4CCN(CC(=O)[O-])CCN(CC(=O)O)CCN(CC(=O)[O-])CC4)cc3S(=O)(=O)[O-])c3ccc(=[N+](CC)CC)cc-3oc2c1.[64Cu+2] the tracer uptake was 4.4 %ID/g (U-87 MG tumour model; host not given, kidney; 4 h, tumour-bearing).
COCCn1c2ccc([N+](=O)[O-])cc2c(=O)n1Cc1ccccc1 gave a selectivity index of 3 (Leishmania amazonensis; promastigotes, MHOM/BR/77/LTB0016; reference: CC50 macrophages over IC50 promastigotes).
For [64Cu+2].c1cnc(CNCc2ccc(CN3CCCN4CCNCCCN(CC4)CC3)cc2)nc1, the tissue uptake was 0.27 ± 0.12 %ID/g (CXCR4; NOD/SCID mouse, U87 and U87-stb-CXCR4 xenografts, muscle; iv, 90 min, ex vivo, together with: AMD3465 25 mg/kg sc before tracer).

Repeated from above:
With CCN(CC)c1ccc2c(-c3ccc(S(=O)(=O)NCCNC(=O)CN4CCN(CC(=O)[O-])CCN(CC(=O)O)CCN(CC(=O)[O-])CC4)cc3S(=O)(=O)[O-])c3ccc(=[N+](CC)CC)cc-3oc2c1.[64Cu+2] the tracer uptake was 4.4 %ID/g (U-87 MG tumour model; host not given, kidney; 4 h, tumour-bearing).
COCCn1c2ccc([N+](=O)[O-])cc2c(=O)n1Cc1ccccc1 gave a selectivity index of 3 (Leishmania amazonensis; promastigotes, MHOM/BR/77/LTB0016; reference: CC50 macrophages over IC50 promastigotes).
